# Results from different studies.
# A part holds a random share of what one study measured.

# Series 1
# Species: mouse
# Medium: microsomes or S9
# Concentration: 2 µM
# Time: 0.5 h
Structure (SMILES),remaining compound
CC(C)(C)c1ccc(C(O)CCC(=O)N[C@@H]2C=C[C@H](CO)C2)cc1 (stereo partly shown),52.3%
O=C1NC2c3ccccc3C(=O)N2c2ccccc21 (stereo not shown),14.8%
Fc1cc(F)cc(-c2cc3cc(-c4ccccc4)[nH]c3cn2)c1,64.9%
COc1ccc(N)cc1-n1nnnc1-n1cccn1,79.2%
O=C(CN1CCCC1Cn1cccn1)Nc1ccccc1-n1ccnc1 (stereo not shown),46.2%
CCOc1cc2c(cc1C1CC(=O)NCc3nc4sccn4c31)CCC2 (stereo not shown),7.94%
CCN(Cc1nc(-c2cccs2)no1)C(=O)C(C)Oc1cc(C)c(Cl)c(C)c1 (stereo not shown),< 1%

# Series 2
# Cell line: normal adjacent epithelium patient-derived organoids
# Method: CellTiter-Glo
# Concentration: 1 µM
# Notes: mean of five organoid lines
# Baseline: DMSO
SMILES,viability [%]
O=C(O)c1ccc(-c2c[nH]c3ncc(-c4ccccc4)cc23)cc1C1CCCC1,109
CN(C)[C@H]1CCN(c2cc(-c3ccccc3)nc3ccnn23)C1,118
C[C@H](c1cccc(C#N)c1)n1cc(Cl)cc(C(N)=O)c1=N,119
CNc1nc(-c2ccc3c(N)n[nH]c3c2)cc(N2C[C@@H](C(=O)NC3CCCCC3)CC[C@H]2C)n1,94.3
NS(=O)(=O)c1cc(NC(=O)Cc2ccccc2)ccc1Oc1cccc(Cl)c1,110
Cn1cncc1[C@@](O)(COc1ccc(C#N)cc1-c1ccc(OC(F)(F)F)cc1)c1ccc(C#N)cc1,89.2
CNC(=O)c1cc(C(=O)N[C@H]2[C@@H]3COC[C@@H]32)cc2c1O[C@@H](CF)[C@@H]2c1ccccc1,104
CN(C)C(=O)Cn1cc(-c2ccc(-c3cncc4ccccc34)cc2)cn1,108
Cc1cn(-c2cc(NC(=O)c3ccc4c(c3)CN(c3cncnc3)C[C@@H]4C)cc(C(F)(F)F)c2)cn1,99.9
CC(=O)N1CCC(c2ccc(C(=O)NC3=NCCN3)cc2C(F)(F)F)CC1,103
CCCCN(Cc1ccccc1)C(=O)c1ccc(S(=O)(=O)Nc2ccccc2)cc1,121
CN1CCN(Cc2ccc(Nc3ncc(Cl)c(Nc4ccccc4S(=O)(=O)N(C)C)n3)cc2)CC1,2.6

# Series 3
# Cell line: mouse MPNST tumor cells
# Method: high-content nuclear imaging
# Item: cell number
# Concentration: 10 µM
# Time: 12 h
# Notes: mean of 2 replicates
# Baseline: plate mean
# Reading: higher = more cells
SMILES,nuclei count [z-score]
C/N=C(/NC#N)NCCSCc1csc(NC(=N)N)n1,1.57
C=CCOc1ccc(C2CC(=O)Nc3nc(N)[nH]c(=O)c32)cc1OC (stereo not shown),-0.0465
CCn1c2ccccc2c2cc(CNC)ccc21,-0.954
Cc1cc(N2CCCCC2)nc2ccccc12,0.875
CCCC(C(=O)OCCN(CC)CC)(c1ccccc1)c1ccccc1,3.59
CCOc1cc(/C=C2/C(=O)N(c3ccccc3)N=C2C)cc(Cl)c1OCC(=O)OC,0.94
CN(C)C(=O)C(CCN1CCC(O)(c2ccc(Cl)cc2)CC1)(c1ccccc1)c1ccccc1,-5.72

# Series 4
# Organism: Sarcocystis neurona
# Read-out: parasite growth
# Concentration: 10 µM
# Time: 96 h
# Notes: first screen
SMILES,inhibition [%]
CS(=O)(=O)c1ccc(C2=C(c3ccccc3)C(=O)OC2)cc1,0.9
CC(C)C[C@H](NC(=O)[C@@H](O)[C@H](N)Cc1ccccc1)C(=O)O,11.3
C[C@@H]1C[C@H]2[C@@H]3CCC4=CC(=O)C=C[C@]4(C)[C@@]3(F)[C@@H](O)C[C@]2(C)[C@@]1(O)C(=O)CO,12
CC(=O)Nc1nnc(S(N)(=O)=O)s1,11.3
C[C@@H]1O[C@@H](OC[C@H]2O[C@@H](Oc3c(-c4ccc(O)c(O)c4)oc4cc(O)cc(O)c4c3=O)[C@H](O)[C@@H](O)[C@@H]2O)[C@H](O)[C@H](O)[C@H]1O,-1.6

# Repeated from above (series 2):
SMILES,viability [%]
CNc1nc(-c2ccc3c(N)n[nH]c3c2)cc(N2C[C@@H](C(=O)NC3CCCCC3)CC[C@H]2C)n1,94.3
NS(=O)(=O)c1cc(NC(=O)Cc2ccccc2)ccc1Oc1cccc(Cl)c1,110
Cn1cncc1[C@@](O)(COc1ccc(C#N)cc1-c1ccc(OC(F)(F)F)cc1)c1ccc(C#N)cc1,89.2
CNC(=O)c1cc(C(=O)N[C@H]2[C@@H]3COC[C@@H]32)cc2c1O[C@@H](CF)[C@@H]2c1ccccc1,104
